{"data": "Measurements of several laboratories", "note": "Each line is one published result; not all experiments were run side by side. ± gives the spread as reported."}
{"Structure (SMILES)": "CSc1ccccc1C(=O)NCCn1cc(C(=O)NCc2cccc(C)n2)c(=O)c2cc3c(cc21)OC(F)(F)O3", "test system": "Sprague-Dawley rat, male, plasma", "setting": "intramuscular, 10 mg/kg of parent drug", "Cmax": "4.75 ± 0.99 ng/mL"}
{"Structure (SMILES)": "C[C@@H]1CCO[C@H]2Cn3cc(C(=O)NCc4ccc(F)cc4F)c(=O)c(O)c3C(=O)N12", "test system": "human, body weight 10 to <14 kg, plasma", "setting": "oral, 8 mg, granules, steady state", "Cmax": "2750 ng/mL"}
{"Structure (SMILES)": "CCCCC1=NC2(CCCC2)C(=O)N1Cc1ccc(-c2ccccc2S(=O)(=O)Nc2noc(C)c2C)c(COCC)c1", "test system": "healthy adult volunteers, plasma", "setting": "oral, 1600 mg, 14 days repeated dosing, fasted, crushed tablet", "Cmax": "8930 ng/mL"}
{"Structure (SMILES)": "Cn1c(C(F)(F)F)cc(=O)n(-c2cc(Oc3cccnc3OCC(=O)O)c(Cl)cc2F)c1=O", "test system": "Crl:CD(SD) rats, male, plasma", "setting": "oral diet, 300 ppm in diet, day 1, 90-day toxicity study", "Cmax": "441 ng/mL"}
{"Structure (SMILES)": "CCc1nc(C(N)=O)c(Nc2ccc(N3CCC(N4CCN(C)CC4)CC3)c(OC)c2)nc1NC1CCOCC1", "test system": "Japanese patients, plasma", "setting": "oral, 200 mg, cycle 0 day -2, single dose, median", "Cmax": "210 ng/mL"}
{"Structure (SMILES)": "CN1CCC[C@H](CN2c3ccccc3Sc3ccccc32)C1.Cl", "test system": "Wistar rat female, skin", "setting": "oral, 16 mg/kg", "Cmax": "1570 ng/g"}
{"Structure (SMILES)": "CCOc1c([C@H](C)n2nc(C)c3c(N)ncnc32)cc(Cl)c(F)c1[C@@H]1CNC(=O)C1", "test system": "patients, monotherapy", "setting": "oral, 10 mg once daily, cycle 1 day 15", "Cmax": "856 ± 449 nM"}
{"Structure (SMILES)": "COCCOc1cnc2ccn([C@H](C)c3nnc4c(F)cc(-c5cnn(C)c5)cn34)c(=O)c2c1", "test system": "patients, plasma", "setting": "oral, 200 mg twice daily, day 28, 400 per day", "Cmax": "3040 ng/mL"}
{"Structure (SMILES)": "Cc1cccc(CNC(=O)c2cn(CCNC(=O)c3ccccc3S)c3cc4c(cc3c2=O)OC(F)(F)O4)n1", "test system": "Sprague-Dawley rat, male, whole blood", "setting": "intravenous, 5 mg/kg of parent compound", "Cmax": "4120 ± 506 ng/mL"}
{"Structure (SMILES)": "COc1ncc(-c2nc3c(n2C(C)C)[C@H](c2ccc(Cl)cc2)N(c2cc(Cl)cn(C)c2=O)C3=O)c(OC)n1", "assay": "LC-MS/MS, noncompartmental", "test system": "human, plasma", "setting": "oral, 2 mg, C1D1, low-dose, geometric mean", "Cmax": "12 ng/mL"}
{"note": "For quick reference, copied from above:"}
{"Structure (SMILES)": "Cc1cccc(CNC(=O)c2cn(CCNC(=O)c3ccccc3S)c3cc4c(cc3c2=O)OC(F)(F)O4)n1", "test system": "Sprague-Dawley rat, male, whole blood", "setting": "intravenous, 5 mg/kg of parent compound", "Cmax": "4120 ± 506 ng/mL"}
